Measurements pooled from the literature.
Parts stem from different laboratories: compare values within a part only. Substitutions count along the parent as printed.

Series 1 — technique: RNA Bind-n-Seq; molecule type: RNA; sample: in vitro; concentration: 365 nM; baseline: no-protein control; reading: higher = stronger binding; quantity: RBNS enrichment (R)
Target: RNA binding protein fox-1 homolog 2, RRM domain, GST-SBP tag (RBFOX2, Homo sapiens, UniProt O43251-10, residues 100-194)
Notes: natural RNA segment, single round, ends assumed
Residues (chain): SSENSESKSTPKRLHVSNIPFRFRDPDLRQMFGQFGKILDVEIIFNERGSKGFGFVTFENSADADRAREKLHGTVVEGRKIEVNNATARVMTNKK
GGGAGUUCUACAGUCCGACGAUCAUGGACUCAGAGCUGUGUGCUUUGCUCCUGCAUCUUGUUGAGGUGCUGUUCCAGCUUUGCAUUUCUGUCAAGUAGAGGCGAAUAUAUAAACAGUGUGGUUGAAUACAUUUUGGAAUUCUCGGGUGCCAA: 0.772
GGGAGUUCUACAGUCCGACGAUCGUGUCUUGGUUUCACUGUUUUUGUUUUGAUUUUUUUUUUGUUUUGAUUUUUUUUAAACUAAAGCUAUAUAAAGCUUGUGGAUUAAACAGAAUAAAUUUCUAAAUUUAAAAUGGAAUUCUCGGGUGCCAA: 1.32
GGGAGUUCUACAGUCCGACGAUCGGGUGGCUUCACUCCGCCCAUUCCAAAGAGGGCUCUCCCUCCACACUGCAGCCGGGAGCCUCUGCUGUCCUUCCCAGCCGCCUCUGCUCCUCGGGCUCAUCACCGGUUCUUGGAAUUCUCGGGUGCCAA: 0.38
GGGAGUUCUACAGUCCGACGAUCUUGUUAGACUUAAUAAAUCACUGUUAAAUUUAAAGAUGACAGUUACCUUGGAAAGUUCACUAAUACUUCGCUCCAAGGCGUCUGUAAAAGAAGAUAUCUUUAUUGGAGCAUGGAAUUCUCGGGUGCCAA: 0.339
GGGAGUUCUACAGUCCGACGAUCAGGACUUUCGGCAAGUCUCGUGACCUCUGGCUCUUUCACUUCCUCCCCACCUGCCAAAUGGGGAUAAAUAAUCUUACCUACCUCCUGGGGGGAGGGGAAGUUCUGAGAAUUGGAAUUCUCGGGUGCCAA: 0.366
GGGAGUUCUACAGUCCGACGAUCUGCACUGUGAGCAGCACUAUACCUGUGCGUUGUCUGAAAGCCUUCCGUAUAUUCUCCAGCUAAAUGGUCGUCUGGUAGCCUUUGCAUUUAACAAACUAGCAUGAGGCUUUUGGAAUUCUCGGGUGCCAA: 3.65
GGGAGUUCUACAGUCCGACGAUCGCAAGGGGAGUGACUGCCUCCCUUGGGCCAAGUUCCCCAGCCUCAGCCUGCACAUCUCUCUCUUUGGCCUGCUGGAGGGUACUCUGAUUCUCUGGCUGGCCGCCUGCGUCUGGAAUUCUCGGGUGCCAA: 0.608
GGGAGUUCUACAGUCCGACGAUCGCCCUCUGGUUUCCCAGCGCAGCCUCUCAUACAGUGGACUGACAGCCUGCACUCUGUUUAGUCAGCCGACUCAGGUUAUCUUCAGGGAAGGUAUGGAGGCAUGGUUUGUUUGGAAUUCUCGGGUGCCAA: 0.567
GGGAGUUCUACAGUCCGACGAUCAAUUUUAAUUUGCUGCUAAGCAAAGACUAGGGACAGGCAAAGAUAAUUUAUGGCAAAGUGUUUAAAUUGUUUAUACAUAAAUAAAGUCUCUAAAACUCCUGUGGACACUGUGGAAUUCUCGGGUGCCAA: 0.682
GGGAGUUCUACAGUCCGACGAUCAGAUGAGGACAUCCUCUUUGUCUACUUGGACAGCUGACAGCAGGAGCCUGGUGCGCCUAGGCCCUCGGACCCCAUCCCCACCCCAGCCGGGCCCGCUCAGGAUGCCCUGGUGGAAUUCUCGGGUGCCAA: 0.217
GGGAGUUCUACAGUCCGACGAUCAGCAUUAAAGAUUAUUUUCCUUAAAUCUCUUCAAGGCCUUCUUAUUGCUGUUAGAAUAGUGUUGUAUCAGGUAUGUGACCAUUUCAGAAGGCUGAACUUACAUAGAGGUUUGGAAUUCUCGGGUGCCAA: 0.745
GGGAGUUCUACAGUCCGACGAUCAUCUGCACCGCCGGCCAGCUGGGAUCUGACUGCACGUGGCUUCUGAUGAAUCUUGCGUUUUUUACAAAUUGGAGCAGGGACAGAUCAUAGAUUUCUGAUUUUAUGUAAAAUGGAAUUCUCGGGUGCCAA: 1.21

Series 2 — target: CCND3, cyclin fold, Cln2 fusion (human); technique: yeast growth competition, sequencing; sample: yeast; notes: weak parent motif; baseline: not given; reading: higher = stronger binding; quantity: normalised enrichment score
Starting sequence: E2F1 docking peptide (human); PPVKRRLDFETDH
R6S: 0.635
R6P: -0.0424
D8G: -0.15
R5G: 0.18
E10G: 0.547
T11A: 0.0893
V3M: -0.0356
E10H: -0.0971
K4C: 1.65
D8P: 0.39
T11M: 0.584
E10C: 0.465
D8Q: -0.0665
T11S: 0.854
L7S: -0.207
T11G: 0.192
F9N: 0.111
K4T: 0.0784
V3K: 0.0281

Series 3 — technique: RNA Bind-n-Seq; molecule type: RNA; sample: in vitro; concentration: 200 nM; notes: whole 134-nt RNA, ends assumed; with: 150 mM LiCl; baseline: input library; reading: higher = stronger binding; quantity: log2 enrichment; each molecule: 7-deaza-guanosine replaces G
Target: Fragile X messenger ribonucleoprotein 1, C-terminal low-complexity region (Fmr1, Mus musculus, UniProt P35922)
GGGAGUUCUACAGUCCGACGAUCAAGUCCUGUGCUACACAUCGUAUGUACCGAAUCGGGUUUUGGUUUUGGGUUUUGGGAAAGUAUUAUGUUACGCCGUUCGGAUCUGCACUUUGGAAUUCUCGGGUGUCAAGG: -1.85
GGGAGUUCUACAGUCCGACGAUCCUCAGCAGACCCUGAAGGACACUUUGAGACACCAAUCUGGAUUGAGCGGGUGGUGAUAAUAGGGGCUGGAAAGCCAGCAGCUGUGGUACUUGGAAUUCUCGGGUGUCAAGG: -1.16
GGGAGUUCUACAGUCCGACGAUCCAAGUCCUGUGCUACACAUCGUAUGUACCGAAUCGGGAAAGGGGAAAGGGAAAGGGAAAGUAUUAUGUUACGCCGUUCGGAUCUGCACUUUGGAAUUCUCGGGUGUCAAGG: -0.817
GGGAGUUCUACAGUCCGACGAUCUUCCAUUGUGAACGUGCCUGGUGAGUCUACUCUUCGCCGAGAUUUCCUGAGACUGCAGCAGGAGAACAAGGAACGUUCCGAGGCUCUUCGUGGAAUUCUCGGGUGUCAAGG: -1.38
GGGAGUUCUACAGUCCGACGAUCUCCUCAAGUCCUGUGCUACACAUCGUAUGUACCGAAUCGGCGGCGGCGGGGAAAGUAUUAUGUUACGCCGUUCGGAUCUGCACUUCCAGCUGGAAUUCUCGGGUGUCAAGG: 1.25
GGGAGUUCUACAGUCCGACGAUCACCAUGCAGGUGGGCAUCUUUGGGAAGUGGGGCAAGGGGGGGAUAGGGAGGGGGGUAACACUUUGGGAACAGGUGGUCCCAGGUCGUUUUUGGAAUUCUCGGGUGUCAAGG: 1.38
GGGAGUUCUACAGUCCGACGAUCCCUGUGCUACACAUCGUAUGUACCGAAUCGGGGAAAAAAGGGGAAAAAAGGAAAAAAGGGAAAGUAUUAUGUUACGCCGUUCGGAUCUGCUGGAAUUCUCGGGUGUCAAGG: 0.126
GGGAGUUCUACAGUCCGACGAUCCACAGACAACACGCAGCCACACAGACACAGAGGGAAGGGGUUGGGAUGGGGACAGGGUGCACAGCAGGGCGGGGUAGGACCCCAGCCCCUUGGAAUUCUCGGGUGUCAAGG: 1.76
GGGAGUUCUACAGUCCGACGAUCUAACUUUAGAGGAGGAUCUGAUGGAUAUGGCAGUGGACGUGGAUUUGGGGAUGGCUAUAAUGGGUAUGGAGGAGGGCCUGGAGGUGGCAAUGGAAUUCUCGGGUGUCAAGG: 1.19
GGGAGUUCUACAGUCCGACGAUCCAAGUCCUGUGCUACACAUCGUAUGUACCGAAUCGGGUUUUUUUGGGUGGGAGGGAAAGUAUUAUGUUACGCCGUUCGGAUCUGCACUUCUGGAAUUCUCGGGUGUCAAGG: -0.353
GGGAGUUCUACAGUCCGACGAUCUGGCCCUGGUGGCAUGCGGGGAGGAAGAGGUGGCCUCAUGGAUCGUGGUGGUCCCGGUGGAAUGUUCAGAGGUGGCCGUGGUGGUGACAGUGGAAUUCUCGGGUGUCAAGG: -0.328

Series 4 — technique: DHFR PCA, deep sequencing; sample: yeast; with: (+)-ABA 1.4 µM; baseline: wild-type fitted maximum; reading: higher = stronger binding; quantity: relative binding score
Target: ABI1, truncated, D143A, DHFR fusion (Arabidopsis thaliana)
Notes: methotrexate growth selection, single substitutions
Starting sequence: PYL1, truncated, DHFR fusion (Arabidopsis thaliana); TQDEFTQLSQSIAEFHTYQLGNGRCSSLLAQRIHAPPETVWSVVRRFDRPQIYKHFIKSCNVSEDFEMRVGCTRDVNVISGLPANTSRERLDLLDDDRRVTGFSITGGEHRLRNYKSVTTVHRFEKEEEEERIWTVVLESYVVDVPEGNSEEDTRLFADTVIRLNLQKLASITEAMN; partner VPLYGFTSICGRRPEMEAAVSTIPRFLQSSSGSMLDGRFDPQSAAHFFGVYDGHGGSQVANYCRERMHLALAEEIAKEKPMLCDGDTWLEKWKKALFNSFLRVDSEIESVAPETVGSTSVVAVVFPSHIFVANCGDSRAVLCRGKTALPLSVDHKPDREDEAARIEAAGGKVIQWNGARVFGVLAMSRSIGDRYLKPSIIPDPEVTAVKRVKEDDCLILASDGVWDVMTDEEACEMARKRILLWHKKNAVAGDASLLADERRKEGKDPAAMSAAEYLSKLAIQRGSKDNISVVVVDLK
V100T: 4.66%
T86S: 69.9%
Q10G: 60.9%
Q51R: 2.56%
V100F: -11.5%
V43Y: 1.46%
A175P: 14.4%
W134R: 15.9%
K168R: 51.6%
R69K: 79.8%
N165K: 9.32%
P36A: 42.9%
T39C: 42.7%
H110Q: 21.6%
A13F: 11.5%
G23V: 19.3%
E130C: 52.6%
P37E: 7.13%
V161L: 60.5%

Some of these lines once more (series 3):
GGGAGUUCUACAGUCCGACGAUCCUCAGCAGACCCUGAAGGACACUUUGAGACACCAAUCUGGAUUGAGCGGGUGGUGAUAAUAGGGGCUGGAAAGCCAGCAGCUGUGGUACUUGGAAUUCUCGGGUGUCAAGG: -1.16
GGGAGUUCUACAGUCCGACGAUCCAAGUCCUGUGCUACACAUCGUAUGUACCGAAUCGGGAAAGGGGAAAGGGAAAGGGAAAGUAUUAUGUUACGCCGUUCGGAUCUGCACUUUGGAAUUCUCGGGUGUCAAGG: -0.817
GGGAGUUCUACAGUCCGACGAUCUUCCAUUGUGAACGUGCCUGGUGAGUCUACUCUUCGCCGAGAUUUCCUGAGACUGCAGCAGGAGAACAAGGAACGUUCCGAGGCUCUUCGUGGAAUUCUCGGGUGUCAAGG: -1.38
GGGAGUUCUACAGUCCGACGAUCUCCUCAAGUCCUGUGCUACACAUCGUAUGUACCGAAUCGGCGGCGGCGGGGAAAGUAUUAUGUUACGCCGUUCGGAUCUGCACUUCCAGCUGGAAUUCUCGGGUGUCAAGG: 1.25
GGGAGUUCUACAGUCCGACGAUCACCAUGCAGGUGGGCAUCUUUGGGAAGUGGGGCAAGGGGGGGAUAGGGAGGGGGGUAACACUUUGGGAACAGGUGGUCCCAGGUCGUUUUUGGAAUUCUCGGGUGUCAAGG: 1.38
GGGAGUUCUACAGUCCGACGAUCCCUGUGCUACACAUCGUAUGUACCGAAUCGGGGAAAAAAGGGGAAAAAAGGAAAAAAGGGAAAGUAUUAUGUUACGCCGUUCGGAUCUGCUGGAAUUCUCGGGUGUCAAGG: 0.126
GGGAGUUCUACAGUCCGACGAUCCACAGACAACACGCAGCCACACAGACACAGAGGGAAGGGGUUGGGAUGGGGACAGGGUGCACAGCAGGGCGGGGUAGGACCCCAGCCCCUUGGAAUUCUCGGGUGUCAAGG: 1.76
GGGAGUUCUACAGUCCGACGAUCUAACUUUAGAGGAGGAUCUGAUGGAUAUGGCAGUGGACGUGGAUUUGGGGAUGGCUAUAAUGGGUAUGGAGGAGGGCCUGGAGGUGGCAAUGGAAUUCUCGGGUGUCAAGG: 1.19
